Published values pooled from the literature.
Compare with care: the assays were run in different laboratories.
UCHL1: Ubiquitin carboxyl-terminal hydrolase isozyme L1 (UCHL1, Homo sapiens, UniProt P09936)
Sequence of UniProt P09936 (whole entry, looked up): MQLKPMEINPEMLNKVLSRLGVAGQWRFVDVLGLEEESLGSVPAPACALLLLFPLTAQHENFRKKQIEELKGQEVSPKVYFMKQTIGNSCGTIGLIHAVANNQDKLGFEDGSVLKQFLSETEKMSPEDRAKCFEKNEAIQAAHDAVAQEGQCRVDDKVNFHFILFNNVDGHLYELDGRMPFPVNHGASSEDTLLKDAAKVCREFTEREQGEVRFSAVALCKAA
Sequence of UniProt Q07794 (whole entry, looked up): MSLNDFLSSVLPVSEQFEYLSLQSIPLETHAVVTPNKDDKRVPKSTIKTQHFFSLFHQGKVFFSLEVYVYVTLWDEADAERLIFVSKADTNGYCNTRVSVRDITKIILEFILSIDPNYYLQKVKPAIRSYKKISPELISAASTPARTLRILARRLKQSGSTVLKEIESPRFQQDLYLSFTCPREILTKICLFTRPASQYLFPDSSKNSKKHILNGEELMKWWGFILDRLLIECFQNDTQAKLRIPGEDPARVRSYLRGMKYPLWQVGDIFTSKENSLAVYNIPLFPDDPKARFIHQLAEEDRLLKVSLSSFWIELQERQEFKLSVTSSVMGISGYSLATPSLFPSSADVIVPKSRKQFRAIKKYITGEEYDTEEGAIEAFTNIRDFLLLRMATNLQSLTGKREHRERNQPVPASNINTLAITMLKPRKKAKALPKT

Structure (SMILES) | target or system | assay | test system | conditions | measurement | result
CC(C)n1c(Nc2cccnc2)nc2cnc(Nc3ccc(N4CCN(C)CC4)cc3)nc21 | – | item: Dizziness | healthy male subjects | oral, 100 mg, with: gemfibrozil | adverse event incidence | 0%
Cc1ccc(Sc2ccccc2N2CCNCC2)c(C)c1 | – | TEAE Diarrhea | elderly men | oral, 10 mg single dose | adverse event incidence | 0%
CC[C@H](C)CCCCC(=O)N[C@@H](CCN)C(=O)N[C@H](C(=O)N[C@@H](CCN)C(=O)N[C@H]1CCNC(=O)[C@H]([C@@H](C)O)NC(=O)[C@H](CCN)NC(=O)[C@H](CCN)NC(=O)[C@H](CC(C)C)NC(=O)[C@@H](Cc2ccccc2)NC(=O)[C@H](CCN)NC1=O)[C@@H](C)O | – | item: dry mouth | long-term IHD patients | intravenous, 0.75 mg/kg | adverse event incidence | 0%
COc1cc(C=C(C#N)C(=O)Nc2c(C)cc(C)cc2C)cc(OC)c1 | UCHL1 | covalent, intact protein LC-MS | – | 12.5 µM | labelling | 35.9%
Nc1ccccc1SC1=CS(=O)(=O)c2ccccc21 | Histone acetyltransferase RTT109, with Vps75 (Saccharomyces cerevisiae, UniProt Q07794) | enzyme activity, inhibitor, HTS, CPM-based, dose response | – | – | IC50 | > 125 µM
FC(F)(F)c1ccc(CNc2ccc(Cc3c[nH]c4ncc(Cl)cc34)cn2)cn1 | – | item: blood creatine phosphokinase increased | patients with advanced solid tumours | oral, dose not given, grade 3 and 4, possibly related to drug | adverse event incidence | 0%
Cc1ccc(NC(=O)C(C#N)=Cc2ccc(Cl)cc2Cl)cc1C | UCHL1 | covalent, intact protein LC-MS | – | 12.5 µM | labelling | 25.7%
NCCONC(=O)[C@@H]1CC[C@@H]2CN1C(=O)N2OS(=O)(=O)O | – | item: leading to dose reduction | healthy Chinese men | intravenous, 2 g, treatment-related | adverse event incidence | 0%
Cc1c(C(=O)O)ccc2c3n(nc12)[C@@H]1[C@H](C3)N(CC2CC2)[C@@]2(C(=O)Nc3cc(Cl)ccc32)[C@H]1c1cccc(Cl)c1F | – | phase Ia trial, item: Diarrhea | cancer patients | oral, dose not given, all patients grade ≥3 | adverse event incidence | 1.9%
O=C1CCc2ccc(OCCCCN3CCN(c4cccc(Cl)c4Cl)CC3)cc2N1 | – | item: Hypotension | genotyped patients, CYP2D6 intermediate metabolizers | dose not given, long-acting oral or depot | adverse event incidence | 1.8%
CNC(=O)c1ccc(-c2cnc3ncc(Cc4ccc5ncccc5c4)n3n2)cc1F | – | phase 1 clinical trial, item: blood creatinine increased | other expansion cohort | oral, 600 mg twice daily, grade 3 or 4 | adverse event incidence | 0%
CC(=O)O[C@H]1C(=O)[C@@]2(C)[C@H]([C@H](OC(=O)c3ccccc3)[C@]3(O)C[C@H](OC(=O)[C@H](O)[C@@H](NC(=O)c4ccccc4)c4ccccc4)C(C)=C1C3(C)C)[C@]1(OC(C)=O)CO[C@@H]1C[C@@H]2O | – | item: Hypophosphataemia | patients with advanced solid tumours | intravenous, dose not given, grade 3 and 4, possibly related to drug | adverse event incidence | 6%
